# Published values gathered from unrelated publications.
# Each line is one published result; not all experiments were run side by side. ± gives the spread as reported.
SMILES,system,conditions,tissue uptake
N=C(N)NCCC[C@@H]1NC(=O)[C@H](CCCCNC(=O)CCOCCOCCOCCOCCNC(=O)CC[C@H](NC(=O)[C@H](CCCCNC(=O)c2ccc(NN)nc2)NC(=O)c2ccc(NN)nc2)C(=O)NCCOCCOCCOCCOCCC(=O)NCCCC[C@@H]2NC(=O)[C@@H](Cc3ccccc3)NC(=O)[C@H](CC(=O)O)NC(=O)CNC(=O)[C@H](CCCNC(=N)N)NC2=O)NC(=O)[C@@H](Cc2ccccc2)NC(=O)[C@H](CC(=O)O)NC(=O)CNC1=O [technetium-99m labelled],"female athymic nude mice, spleen","intravenous, 0.1 MBq, 1 h, U-87 MG glioma xenograft",1.78 ± 0.26 %ID/g
N=C(N)NCCC[C@@H]1NC(=O)[C@H](CCCCNC(=O)CC[C@H](NC(=O)CCOCCOCCOCCOCCNC(=O)CC[C@H](NC(=O)CN2CCN(CC(=O)O)CCN(CC(=O)O)CCN(CC(=O)O)CC2)C(=O)NCCOCCOCCOCCOCCC(=O)N[C@@H](CCC(=O)NCCCC[C@@H]2NC(=O)[C@@H](Cc3ccccc3)NC(=O)[C@H](CC(=O)O)NC(=O)CNC(=O)[C@H](CCCNC(=N)N)NC2=O)C(=O)NCCCC[C@@H]2NC(=O)[C@@H](Cc3ccccc3)NC(=O)[C@H](CC(=O)O)NC(=O)CNC(=O)[C@H](CCCNC(=N)N)NC2=O)C(=O)NCCCC[C@@H]2NC(=O)[C@@H](Cc3ccccc3)NC(=O)[C@H](CC(=O)O)NC(=O)CNC(=O)[C@H](CCCNC(=N)N)NC2=O)NC(=O)[C@@H](Cc2ccccc2)NC(=O)[C@H](CC(=O)O)NC(=O)CNC1=O [indium-111 labelled],"female athymic nude mice, brain","intravenous, 3 µCi, 24 h, U-87 MG glioma xenograft",0.05 ± 0.01 %ID/g
CSCC[C@H](NC(=O)[C@H](CC(C)C)NC(=O)[C@H](Cc1c[nH]cn1)NC(=O)CNC(=O)[C@@H](NC(=O)[C@H](C)NC(=O)[C@H](Cc1c[nH]c2ccccc12)NC(=O)[C@H](CCC(N)=O)NC(=O)CNC(=O)[C@H](CO)NC(=O)CNC(=O)CCCCCCCNC(=O)CCC(=O)Nc1ccc(CNC23CNCCNCC(N)(CNCCNC2)CNCCNC3)cc1)C(C)C)C(N)=O [copper-64 labelled],"female SCID mice, PC-3 xenograft, pancreas","intravenous, 1 h, together with: 100 µg Tyr4-bombesin blocking",1.9 ± 0.1 %ID/g
N=C(N)NCCC[C@@H]1NC(=O)[C@H](CCCCNC(=O)CC[C@H](NC(=O)[C@H](CCCCNC(=O)c2ccc(NN)nc2)NC(=O)c2ccc(NN)nc2)C(=O)NCCCC[C@@H]2NC(=O)[C@@H](Cc3ccccc3)NC(=O)[C@H](CC(=O)O)NC(=O)CNC(=O)[C@H](CCCNC(=N)N)NC2=O)NC(=O)[C@@H](Cc2ccccc2)NC(=O)[C@H](CC(=O)O)NC(=O)CNC1=O [technetium-99m labelled],"female athymic nude mice, heart","intravenous, 0.1 MBq, 1 h, U-87 MG glioma xenograft",1.02 ± 0.06 %ID/g
CC(C)C[C@H](NC(=O)[C@H](Cc1ccc(O)cc1)NC(=O)[C@@H](CCCNC(=N)N)NC(=O)[C@@H](CO)NC(=O)[C@H](Cc1ccccc1)NC(=O)[C@H](CC1CCCCC1)NC(=O)[C@H](CC(=O)O)NC(=O)CCC(C(=O)O)N1CCCN2CCN(CCCN(CC(=O)O)CC2)CC1)C(=O)N[C@@H](Cc1c[nH]c2ccccc12)C(=O)N[C@@H](CO)C(=O)O (some centres unmarked) [copper-64 labelled],"female NMRI nude mice, liver",22 h p.i.,1.6 ± 0.1 %ID/g
N=C(N)NCCC[C@@H]1NC(=O)[C@H](CCCCNC(=O)CC[C@H](NC(=O)CCOCCOCCOCCOCCNC(=O)CN2CCN(CC(=O)O)CCN(CC(=O)O)CCN(CC(=O)O)CC2)C(=O)NCCCC[C@@H]2NC(=O)[C@@H](Cc3ccccc3)NC(=O)[C@H](CC(=O)O)NC(=O)CNC(=O)[C@H](CCCNC(=N)N)NC2=O)NC(=O)[C@@H](Cc2ccccc2)NC(=O)[C@H](CC(=O)O)NC(=O)CNC1=O [indium-111 labelled],"athymic nude mice, female, U-87 MG glioma xenograft, spleen","intravenous, 3 µCi, 72 h",0.58 ± 0.09 %ID/g
CSCC[C@H](NC(=O)[C@H](CC(C)C)NC(=O)[C@H](Cc1c[nH]cn1)NC(=O)CNC(=O)[C@@H](NC(=O)[C@H](C)NC(=O)[C@H](Cc1c[nH]c2ccccc12)NC(=O)[C@H](CCC(N)=O)NC(=O)CCCCCCCNC(=O)CCC(=O)Nc1ccc(CNC23CNCCNCC(N)(CNCCNC2)CNCCNC3)cc1)C(C)C)C(N)=O [copper-64 labelled],"female SCID mice, PC-3 xenograft, muscle","intravenous, 0.6 MBq, 4 h",0.272 ± 0.077 %ID/g
N=C(N)NCCC[C@H](NC(=O)[C@H](CCCCN)NC(=O)[C@H](CCC(N)=O)NC(=O)CCOCCOCCOCCNC(=O)CN1CCN(CC(=O)O)CCN(CC(=O)O)CCN(CC(=O)O)CC1)C(=O)N[C@@H](CCCCN)C(=O)N[C@@H](CCCNC(=N)N)C(=O)N[C@@H](CCCCN)C(=O)N[C@@H](CCCCN)C(=O)N[C@@H](CO)C(=O)N[C@@H](CCCNC(=N)N)C(=O)N[C@@H](Cc1ccc(O)cc1)C(=O)N[C@@H](CCCCN)C(=O)N[C@@H](CO)C(=O)O [copper-64 labelled],"male C57BL/6 mice, B16-F10 tumour, stomach","intravenous, 60 min",0.97 ± 0.1 %ID/g
N=C(N)NCCC[C@@H]1NC(=O)[C@H](CCCCNC(=O)CCOCCOCCOCCOCCNC(=O)CN2CCN(CC(=O)O)CCN(CC(=O)O)CCN(CC(=O)O)CC2)NC(=O)[C@@H](Cc2ccccc2)NC(=O)[C@H](CC(=O)O)NC(=O)CNC1=O [indium-111 labelled],"athymic nude mice, female, U-87 MG glioma xenograft, spleen","intravenous, 3 µCi, 4 h",0.73 ± 0.16 %ID/g
N=C(N)NCCC[C@@H]1NC(=O)[C@H](CCCCNC(=O)CCOCCOCCOCCOCCNC(=O)CC[C@H](NC(=O)CCOCCOCCOCCOCCNC(=O)[C@H](CCCCNC(=O)c2ccc(NN)nc2)NC(=O)c2ccc(NN)nc2)C(=O)NCCOCCOCCOCCOCCC(=O)NCCCC[C@@H]2NC(=O)[C@@H](Cc3ccccc3)NC(=O)[C@H](CC(=O)O)NC(=O)CNC(=O)[C@H](CCCNC(=N)N)NC2=O)NC(=O)[C@@H](Cc2ccccc2)NC(=O)[C@H](CC(=O)O)NC(=O)CNC1=O [technetium-99m labelled],"female athymic nude mice, spleen","intravenous, 0.1 MBq, 1 h, U-87 MG glioma xenograft",1.92 ± 0.38 %ID/g
CSCC[C@H](NC(=O)[C@H](CC(C)C)NC(=O)[C@H](Cc1c[nH]cn1)NC(=O)CNC(=O)[C@@H](NC(=O)[C@H](C)NC(=O)[C@H](Cc1c[nH]c2ccccc12)NC(=O)[C@H](CCC(N)=O)NC(=O)CCCCNC(=O)CSCCSCCP(CO)CO)C(C)C)C(N)=O [technetium-99m labelled],"CF-1 mice, female, brain","intravenous, 1 h",0 %ID

# Repeated from above:
SMILES,system,conditions,tissue uptake
N=C(N)NCCC[C@@H]1NC(=O)[C@H](CCCCNC(=O)CCOCCOCCOCCOCCNC(=O)CN2CCN(CC(=O)O)CCN(CC(=O)O)CCN(CC(=O)O)CC2)NC(=O)[C@@H](Cc2ccccc2)NC(=O)[C@H](CC(=O)O)NC(=O)CNC1=O [indium-111 labelled],"athymic nude mice, female, U-87 MG glioma xenograft, spleen","intravenous, 3 µCi, 4 h",0.73 ± 0.16 %ID/g
